Experimental data collected from several papers.
Each line is one published result; not all experiments were run side by side. Numbers after ± are the reported error.
folP: Dihydropteroate synthase (folP, Bacteria, UniProt P0AC13)
T1: RNA aptamer; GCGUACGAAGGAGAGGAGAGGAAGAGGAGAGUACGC
T2: RNA aptamer; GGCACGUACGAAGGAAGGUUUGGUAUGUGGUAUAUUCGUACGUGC
T3: RNA aptamer; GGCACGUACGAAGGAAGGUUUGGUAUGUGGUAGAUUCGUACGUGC

| Compound | target | assay | test system | setting | how to read | measurement | result |
| --- | --- | --- | --- | --- | --- | --- | --- |
| CC(=O)[C@]12NC(C)(C)C[C@@]1(C)C(=O)C1=C2c2c(c3c4n2C(C)(C)CC2=C4[C@@]4(CC(C)(C)N[C@@](C)(C4)C2=O)CC3(C)C)C(=O)C(C)(C)N1 (racemic) | KCNQ3 (Homo sapiens, UniProt O43525) | ion current, whole-cell patch clamp | HEK293T | 40 µM | relative to: before compound | relative current | 0.99 ± 0.01 |
| Cc1cc(C)cc(COc2cc3c(cc2OCc2cc(C)cc(C)c2)C2CC(O)(Cc4cn(CCOCCOCCNC(=O)CCCCC5SCC6NC(=O)NC65)nn4)CC(C)N2CC3)c1 (stereo not drawn) | Probable glutathione peroxidase 8 (GPX8, Homo sapiens, UniProt Q8TED1) | biotinylated probe pull-down, item: GPX8 |  | 10 µM probe | relative to: heavy over light | SILAC ratio | 1.33 |
| CCCCCCCCCCCCC/C=C/C=O | ATP6V1A (Homo sapiens, UniProt P38606) | competitive isoTOP-ABPP | Ramos soluble proteome | 100 µM, together with: iodoacetamide probe | relative to: DMSO over compound-treated, higher = stronger cysteine blockade | isoTOP-ABPP competition ratio | 1.1 |
| CC(=O)N[C@@H](CO)C(=O)N[C@@H](CC(C)C)C(=O)N[C@@H](CCC(=O)O)C(=O)N[C@@H](CCC(=O)O)C(=O)N1CCC[C@H]1C(=O)N[C@@H](Cc1c[nH]cn1)C(=O)N[C@@H](COP(=O)(O)O)C(=O)N1CCC[C@H]1C(=O)N[C@@H](CCC(=O)O)C(=O)N[C@H](C(=O)NCC(=O)N[C@@H](CCC(=O)O)C(=O)N[C@@H](CCCCN)C(=O)N[C@H](C(=O)N[C@H](C(=O)N[C@@H](C)C(=O)NCC(=O)N[C@@H](CCC(=O)O)C(=O)N[C@H](C(=O)N[C@@H](CC(N)=O)C(N)=O)C(C)C)C(C)C)C(C)C)[C@@H](C)O | Kelch-like ECH-associated protein 1, Kelch domain (KEAP1, Homo sapiens, UniProt Q14145) | binding, ITC |  | pH 7, 298.15 K |  | ΔH | -10.4 ± 0.136 kcal/mol |
| Cc1n[nH]c2nc(N)[nH]c(=O)c2c1=O | folP | CETSA HiBiT | Escherichia coli, cell lysate | concentration not given | relative to: DMSO | melting temperature shift | 12.9 °C |
| CC1(C)C[C@@H](Nc2cccc(-c3sc(C(=O)O)c(OCC(=O)O)c3Cl)c2)CCN1S(=O)(=O)Cc1cccc(NC(=O)CN2CCC(c3ccc4c(c3)oc(=O)n4C3CCC(=O)NC3=O)CC2)c1 (stereo partly drawn) | PTPN1 (Homo sapiens, UniProt P18031) | degrader, bio-layer interferometry |  | 31.3 nM, biotinylated protein immobilised | higher = more binding | BLI binding response | 0.0908 a.u. |
| Cn1nc(CCCC(=O)O)c(=O)c2c(=O)[nH]c(N)nc21 | folP | CETSA HiBiT | Escherichia coli, cell lysate | concentration not given | relative to: DMSO | melting temperature shift | 13.7 °C |
| COc1ccccc1-c1ccncc1C(=O)Nc1nnc(OCc2ccc(Cl)cc2)s1 | RECQL5 (Homo sapiens, UniProt O94762) | ATPase activity, ADP-Glo |  | 0.015 µM, 1 h |  | remaining activity | 107% |
| CC(=O)N1c2ccc(-c3ccc(CNC(=O)c4cn5cc(-c6cnc(N)nc6)nc(N6CCOCC6)c5n4)cc3)cc2CC[C@@H]1C | BPTF (Homo sapiens, UniProt Q12830) | binding, competition with immobilised ligand |  | 10 µM |  | remaining binding | 14% |
| CCCC1(CCC)C(=O)N(c2cccc(CN3CCN(Cc4ccc(Br)cc4)CC3)c2)C1=O | DPP9 (Homo sapiens, UniProt Q86TI2) | enzyme activity, inhibitor |  | 5 µM |  | activity vs control | 67% |
| CC[C@H](C)[C@@H]1NC(=O)[C@H](CO)NC(=O)[C@H](CCC(N)=O)NC(=O)[C@@H](NC(=O)CN)CSSC[C@@H]2NC(=O)CNC(=O)[C@H](C)NC(=O)[C@H](CC(C)C)NC(=O)[C@@H]3CSSC[C@@H](C(=O)NCC(=O)O)NC(=O)[C@H](Cc4ccccc4)NC(=O)CNC(=O)[C@H](CC(N)=O)NC(=O)[C@@H]4CCCN4C(=O)CNC(=O)[C@H](CSSC[C@H](NC(=O)[C@H](CCCNC(=N)N)NC(=O)[C@H](CCC(N)=O)NC(=O)[C@H](CCCNC(=N)N)NC(=O)[C@H](CCCCN)NC(=O)[C@H](C(C)C)NC(=O)[C@H](CCCNC(=N)N)NC(=O)[C@H](CC(N)=O)NC1=O)C(=O)N[C@@H](CCCCN)C(=O)N[C@@H](CCC(N)=O)C(=O)N[C@@H](CC(=O)O)C(=O)N[C@@H](CO)C(=O)N[C@@H](CC(=O)O)C(=O)N3)NC(=O)[C@H](C(C)C)NC2=O | Low-density lipoprotein receptor-related protein 6, E1 domain (LRP6, Homo sapiens, UniProt O75581) | binding, SPR |  | pH 7.5 |  | kon | 2.18e+06 ± 260000 M⁻¹ s⁻¹ |
| Cc1cn([C@H]2C[C@H](n3cc([C@]4(O)CC[C@H]5[C@@H]6CCc7cc(O)ccc7[C@H]6CC[C@@]54C)nn3)[C@@H](CO)O2)c(=O)[nH]c1=O | Protein Mdm4 (MDM4, Homo sapiens, UniProt O15151) | thermal stability, DSF |  | 30 µM |  | ΔTm | -0.06 °C |
| CC[C@H](C)[C@H](NC(=O)[C@H](CCC(=O)O)NC(=O)[C@H](CCCNC(=N)N)NC(=O)[C@H](C)NC(=O)[C@H](Cc1c[nH]c2ccccc12)NC(=O)[C@H](CCC(=O)O)NC(=O)[C@H](CCC(=O)O)NC(=O)[C@H](CCC(=O)O)NC(C)=O)C(=O)NCC(=O)N[C@@H](C)C(=O)N[C@@H](CCC(N)=O)C(=O)N[C@@H](CC(C)C)C(=O)N[C@@H](CCCNC(=N)N)C(=O)N[C@@H](CCCNC(=N)N)C(=O)N[C@@H](C)C(=O)NCC(=O)N[C@@H](CC(=O)O)C(=O)N[C@@H](CC(=O)O)C(=O)N[C@@H](CC(C)C)C(=O)N[C@@H](CC(N)=O)C(=O)N[C@@H](C)C(=O)N[C@@H](CCC(N)=O)C(=O)N[C@@H](Cc1ccc(O)cc1)C(=O)N[C@@H](CCC(=O)O)C(=O)N[C@@H](CCCNC(=N)N)C(=O)N[C@@H](CCCNC(=N)N)C(=O)N[C@@H](CCCNC(=N)N)C(N)=O | Induced myeloid leukemia cell differentiation protein Mcl-1 homolog, residues 152-308 (Mus musculus, UniProt P97287) | binding, SPR |  |  | relative to: PUMA peptide | ΔΔG | -1.67 kcal/mol |
| C=C(NC(=O)c1csc(-c2cccnc2)n1)C(=O)NC(=C)C(=O)OC | PRDX3 (Homo sapiens, UniProt P30048, A142E/C108S/S139E) | MALDI-TOF |  | 50 µM |  | adduct formation rate | 0.0058 ± 0.0002 min⁻¹ |
| Cn1nc(COC(=O)c2ccccc2)c(=O)c2c(=O)[nH]c(N)nc21 | folP | CETSA HiBiT | Escherichia coli, cell lysate | concentration not given | relative to: DMSO | melting temperature shift | 16.5 °C |
| CCCCCCCO[C@H]1O[C@H](CO)[C@@H](O)[C@H](O)[C@@H]1O | Type 1 fimbrin D-mannose specific adhesin, lectin domain (fimH, Escherichia coli K-12, UniProt P08191) | binding, isothermal titration calorimetry |  | 15 °C, global fit of two titrations |  | -TΔS | -0.359 kcal/mol |
| Nc1nc2[nH]nc(CC(=O)O)c(=O)c2c(=O)[nH]1 | folP | CETSA HiBiT | Escherichia coli, cell lysate | concentration not given | relative to: DMSO | melting temperature shift | 22.5 °C |

| Compound | target | assay | test system | setting | how to read | measurement | result |
| --- | --- | --- | --- | --- | --- | --- | --- |
| COc1cc(C2C(NC(=O)c3ccc(NC(=O)OC(C)(C)C)cc3)(C(=O)O)C(c3ccc(OC(=O)c4cccs4)c(OC)c3)C2(NC(=O)c2ccc(NC(=O)OC(C)(C)C)cc2)C(=O)O)ccc1OC(=O)c1cccs1 (stereo not drawn) | GLP1R (Homo sapiens, UniProt P43220, K202A) | cAMP accumulation, agonist |  | receptor mutant | relative to: wild type | Emax | 83.6 ± 4.25% |
| C[C@@H](Nc1nc(N[C@H](C)C(F)(F)F)nc(-c2cccc(Cl)n2)n1)C(F)(F)F | IDH2 (Homo sapiens, UniProt P48735) |  |  | 16 h preincubation |  | maximum inhibition | 70.8 ± 5.3% |
| CC1=C(/C=C/C(C)=C\C=C\C(C)=C\C=O)C(C)(C)CCC1 | Rhodopsin (RHO, Homo sapiens, UniProt P08100, P23H) | ER retention, co-localization with calnexin | COS-7 transfected P23H | 10 µM, mononucleated cells |  | Pearson correlation coefficient | 0.682 ± 0.016 |
| CCCCCC=CC=C1C(=O)C=CC1CC=CCCCC(=O)O (stereo not drawn) | Large ribosomal subunit protein uL14 (Homo sapiens, UniProt P62829) | competitive isoTOP-ABPP, item: RPL23 cysteine peptide | Ramos soluble proteome | 100 µM, together with: iodoacetamide probe | relative to: DMSO over compound-treated, higher = stronger cysteine blockade | isoTOP-ABPP competition ratio | 3 |
| Cc1cc(NC(=O)[C@H](O)c2cc(F)cc(F)c2)ccc1-c1cnc(N)c(C(=O)NC(C)C)c1 | HIPK4 (Homo sapiens, UniProt Q8NE63) | binding, competition with immobilised ligand |  | 10 µM |  | remaining binding | 24% |
| CC1(C)CC[C@@]2(CO)C(=C3C=C[C@@H]4[C@@]5(C)CC[C@H](O)[C@@](C)(CO)[C@@H]5CC[C@@]4(C)[C@]3(C)C[C@@H]2O)C1 | SIRT1 (Homo sapiens, UniProt Q96EB6) | binding, microscale thermophoresis |  | 49.6 nM |  | MST normalised fluorescence | 910 a.u. |
| CN1C=C/C(=C\c2sc3ccccc3[n+]2CC(=O)NCc2ccccc2)c2ccccc21 | T1, RNA aptamer | fluorescence titration |  | apparent |  | Kd | 0.27 nM |
| Cc1ccc2c(c1)N(C)C=CC2=Cc1sc2ccccc2[n+]1C | T2, RNA aptamer | fluorescence titration |  |  |  | Kd | 0.5 nM |
| Cn1nc(CO)c(=O)c2c(=O)[nH]c(N)nc21 | folP | CETSA HiBiT | Escherichia coli, whole cells |  |  | melting temperature | 59.4 °C |
| COc1ccc(-c2ccc3c(c2)C(=Cc2sc4ccccc4[n+]2CC(=O)NCCOCCOCCOCCNC(=O)CCCC[C@@H]2SC[C@@H]4NC(=O)N[C@@H]42)C=CN3C)cc1 | T3, RNA aptamer | fluorescence titration |  |  |  | Kd | 64.2 nM |
| O=C1c2sc(-c3ccc(N4CCC(F)C4)nc3F)nc2CCN1c1cccnc1 (stereo not drawn) | TAR DNA-binding protein 43, aggregated (TARDBP, Homo sapiens, UniProt Q13148) | binding, surface plasmon resonance | brain-derived TDP-43 aggregates | 37.5 nM |  | SPR response | 0.978 RU |
| CCC1Sc2ccc(S(=O)(=O)CCC(=O)Nc3cccc4ccccc34)cc2NC1=O (stereo not drawn) | P2X purinoceptor 7 (Ailuropoda melanoleuca, UniProt G1M6C4) | ATP-evoked current, inhibitor, whole-cell patch clamp | HEK293 transfected | 0.3 µM, wild type |  | remaining current | 84.7% |
| C=CC(=O)N1C[C@H](C)N(c2nc(OC[C@@]34CCCN3C[C@H](F)C4)nc3c(F)c(-c4ccc(F)c5sc(N)c(C#N)c45)c(C(F)(F)F)cc23)C[C@H]1C | GTPase KRas, GppNHp-bound (KRAS, Homo sapiens, UniProt P01116) | kinetic fit |  | GppNHp-bound wild type |  | dissociation rate constant | 0.352 ± 0.034 s⁻¹ |
| Cc1nn(C)c2nc(N)[nH]c(=O)c2c1=O | folP | CETSA HiBiT | Escherichia coli, whole cells |  |  | melting temperature | 64.8 °C |
| Cc1nc(-c2c[nH]c(C(=O)Nc3ncccc3O)c2)cs1 | Trypsin-3 (Homo sapiens, UniProt P35030, H275D) | enzyme activity, mixed inhibitor, steady-state kinetics |  |  | higher = weaker ES binding | alpha factor | > 20 |
| N#Cc1cnc2sc(C(=O)O)cc2c1N1CCc2[nH]nc(C(=O)N[C@@H](CC(=O)NCCOCCN3CCOCC3)c3cccc(Br)c3)c2C1 | IL1R1 (Homo sapiens, UniProt P14778) | SEAP reporter gene, antagonist | HEK-Blue IL-36R cells | 100 µM, 6 h, together with: IL-1β 5 ng/mL | relative to: untreated | remaining activity | 110% |
